Published values of several laboratories.
Each line is one published result; not all experiments were run side by side. “And” joins repeats or separate records; there may be more than shown. Numbers after ± are the reported error.
TPR: Trypanothione reductase (TPR, Trypanosoma brucei brucei, UniProt P39051)
UniProt P39051, sequence (whole entry, looked up): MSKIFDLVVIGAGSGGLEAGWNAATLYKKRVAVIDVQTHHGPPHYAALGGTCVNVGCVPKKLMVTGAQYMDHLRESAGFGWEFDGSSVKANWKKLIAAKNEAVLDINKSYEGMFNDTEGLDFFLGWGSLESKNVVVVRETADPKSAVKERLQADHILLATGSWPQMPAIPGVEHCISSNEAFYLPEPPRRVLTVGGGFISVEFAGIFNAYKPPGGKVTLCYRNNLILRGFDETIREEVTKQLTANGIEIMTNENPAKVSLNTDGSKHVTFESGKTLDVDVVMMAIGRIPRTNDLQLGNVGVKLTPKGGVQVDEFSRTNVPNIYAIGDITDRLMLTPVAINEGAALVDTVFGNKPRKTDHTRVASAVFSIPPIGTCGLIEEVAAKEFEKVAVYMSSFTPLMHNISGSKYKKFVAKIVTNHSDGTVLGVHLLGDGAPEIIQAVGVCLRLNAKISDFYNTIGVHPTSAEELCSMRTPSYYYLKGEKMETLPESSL
ACVR1 R206H: Activin receptor type-1 (ACVR1, Homo sapiens, UniProt Q04771, R206H)
UniProt Q04771, sequence (whole entry, unmodified, looked up): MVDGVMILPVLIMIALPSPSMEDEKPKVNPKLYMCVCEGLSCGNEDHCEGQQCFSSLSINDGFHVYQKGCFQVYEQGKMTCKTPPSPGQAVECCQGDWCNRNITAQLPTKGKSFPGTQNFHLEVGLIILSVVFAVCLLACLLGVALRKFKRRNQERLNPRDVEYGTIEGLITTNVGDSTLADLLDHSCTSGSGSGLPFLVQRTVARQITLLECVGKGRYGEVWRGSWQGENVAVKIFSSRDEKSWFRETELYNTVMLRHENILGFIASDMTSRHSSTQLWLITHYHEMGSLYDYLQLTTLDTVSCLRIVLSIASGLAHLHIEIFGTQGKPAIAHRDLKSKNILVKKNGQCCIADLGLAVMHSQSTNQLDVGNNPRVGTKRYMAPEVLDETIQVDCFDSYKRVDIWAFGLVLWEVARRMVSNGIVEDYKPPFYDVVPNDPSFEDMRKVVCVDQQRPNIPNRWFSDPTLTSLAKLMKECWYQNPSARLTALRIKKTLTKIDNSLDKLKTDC
CD38: ADP-ribosyl cyclase/cyclic ADP-ribose hydrolase 1 (CD38, Homo sapiens, UniProt P28907)
UniProt P51812, sequence (whole entry, unmodified, looked up): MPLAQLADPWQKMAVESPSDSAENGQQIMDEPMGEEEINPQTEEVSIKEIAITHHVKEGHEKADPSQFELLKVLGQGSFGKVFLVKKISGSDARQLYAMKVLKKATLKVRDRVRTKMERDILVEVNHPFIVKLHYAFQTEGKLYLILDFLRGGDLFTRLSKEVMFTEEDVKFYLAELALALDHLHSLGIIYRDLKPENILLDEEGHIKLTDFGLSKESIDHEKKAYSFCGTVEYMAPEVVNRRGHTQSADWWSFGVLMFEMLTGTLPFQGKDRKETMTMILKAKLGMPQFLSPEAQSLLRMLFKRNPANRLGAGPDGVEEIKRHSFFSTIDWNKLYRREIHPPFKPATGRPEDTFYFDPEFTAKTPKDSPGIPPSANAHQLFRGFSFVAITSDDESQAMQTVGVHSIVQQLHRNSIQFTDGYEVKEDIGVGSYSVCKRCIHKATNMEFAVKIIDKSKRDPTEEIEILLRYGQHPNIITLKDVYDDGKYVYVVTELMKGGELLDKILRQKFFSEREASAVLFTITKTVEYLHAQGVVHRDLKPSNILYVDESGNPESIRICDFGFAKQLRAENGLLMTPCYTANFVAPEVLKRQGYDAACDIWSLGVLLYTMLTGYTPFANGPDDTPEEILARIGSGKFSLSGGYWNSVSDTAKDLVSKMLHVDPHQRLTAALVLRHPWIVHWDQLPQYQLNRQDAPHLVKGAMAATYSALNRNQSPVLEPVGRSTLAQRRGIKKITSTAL
UniProt P08170, sequence (whole entry, looked up): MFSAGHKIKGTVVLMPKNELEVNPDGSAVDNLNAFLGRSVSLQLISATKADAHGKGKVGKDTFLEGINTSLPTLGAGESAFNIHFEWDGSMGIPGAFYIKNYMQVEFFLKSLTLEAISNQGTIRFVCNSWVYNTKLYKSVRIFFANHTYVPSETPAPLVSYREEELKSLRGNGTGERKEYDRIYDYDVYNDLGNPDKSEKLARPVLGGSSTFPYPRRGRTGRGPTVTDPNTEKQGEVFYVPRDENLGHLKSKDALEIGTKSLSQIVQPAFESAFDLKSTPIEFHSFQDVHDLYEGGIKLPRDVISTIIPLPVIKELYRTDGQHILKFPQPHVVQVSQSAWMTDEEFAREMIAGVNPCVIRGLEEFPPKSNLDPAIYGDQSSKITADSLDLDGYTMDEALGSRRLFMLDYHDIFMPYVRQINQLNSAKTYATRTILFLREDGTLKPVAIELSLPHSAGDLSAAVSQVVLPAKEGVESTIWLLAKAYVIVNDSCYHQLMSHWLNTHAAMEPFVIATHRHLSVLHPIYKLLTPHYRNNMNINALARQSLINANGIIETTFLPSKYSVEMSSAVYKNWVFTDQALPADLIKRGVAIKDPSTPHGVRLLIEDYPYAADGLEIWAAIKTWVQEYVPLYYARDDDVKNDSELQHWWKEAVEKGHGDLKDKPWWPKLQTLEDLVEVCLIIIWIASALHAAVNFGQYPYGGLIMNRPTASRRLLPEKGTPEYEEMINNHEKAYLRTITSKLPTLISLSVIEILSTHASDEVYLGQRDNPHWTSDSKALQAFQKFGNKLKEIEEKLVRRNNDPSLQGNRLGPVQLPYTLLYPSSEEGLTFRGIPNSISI
UniProt P28907, sequence (whole entry, looked up): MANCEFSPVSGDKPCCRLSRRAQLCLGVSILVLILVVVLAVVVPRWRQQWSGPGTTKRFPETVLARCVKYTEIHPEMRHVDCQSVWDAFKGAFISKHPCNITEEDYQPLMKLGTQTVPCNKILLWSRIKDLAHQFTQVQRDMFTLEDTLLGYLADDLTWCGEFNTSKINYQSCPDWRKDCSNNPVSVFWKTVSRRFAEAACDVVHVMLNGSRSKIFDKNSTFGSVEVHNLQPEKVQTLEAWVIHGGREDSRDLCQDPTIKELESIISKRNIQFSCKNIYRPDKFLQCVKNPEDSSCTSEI
UniProt O60674, sequence (whole entry, looked up): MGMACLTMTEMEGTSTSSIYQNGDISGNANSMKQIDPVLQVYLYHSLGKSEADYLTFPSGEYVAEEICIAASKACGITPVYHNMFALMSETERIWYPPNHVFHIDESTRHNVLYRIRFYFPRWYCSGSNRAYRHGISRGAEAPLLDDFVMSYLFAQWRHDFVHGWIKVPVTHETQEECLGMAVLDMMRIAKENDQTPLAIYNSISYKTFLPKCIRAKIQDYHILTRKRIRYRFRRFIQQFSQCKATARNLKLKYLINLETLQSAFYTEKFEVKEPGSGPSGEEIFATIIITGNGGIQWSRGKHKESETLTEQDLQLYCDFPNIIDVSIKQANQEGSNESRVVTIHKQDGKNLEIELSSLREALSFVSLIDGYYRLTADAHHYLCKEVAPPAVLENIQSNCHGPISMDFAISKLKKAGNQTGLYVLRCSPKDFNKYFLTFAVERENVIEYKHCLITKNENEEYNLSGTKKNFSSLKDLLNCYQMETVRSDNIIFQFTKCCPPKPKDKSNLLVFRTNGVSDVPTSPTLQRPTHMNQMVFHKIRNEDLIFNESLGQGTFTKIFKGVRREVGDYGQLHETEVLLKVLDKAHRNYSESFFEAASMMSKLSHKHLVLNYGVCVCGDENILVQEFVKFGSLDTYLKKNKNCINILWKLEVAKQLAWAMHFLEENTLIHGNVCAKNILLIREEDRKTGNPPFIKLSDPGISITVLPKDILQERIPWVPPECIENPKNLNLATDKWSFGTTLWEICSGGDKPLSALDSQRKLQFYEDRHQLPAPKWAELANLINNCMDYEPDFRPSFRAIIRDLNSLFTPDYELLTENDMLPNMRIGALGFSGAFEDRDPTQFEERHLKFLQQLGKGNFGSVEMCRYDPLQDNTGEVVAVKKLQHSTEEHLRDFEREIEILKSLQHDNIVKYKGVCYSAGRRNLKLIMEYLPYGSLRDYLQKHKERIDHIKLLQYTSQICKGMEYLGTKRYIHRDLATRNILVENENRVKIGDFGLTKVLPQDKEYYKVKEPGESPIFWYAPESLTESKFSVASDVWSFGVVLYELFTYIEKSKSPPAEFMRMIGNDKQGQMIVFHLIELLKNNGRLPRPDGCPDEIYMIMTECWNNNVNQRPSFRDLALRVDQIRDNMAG
UniProt Q05BQ5, sequence (whole entry, looked up): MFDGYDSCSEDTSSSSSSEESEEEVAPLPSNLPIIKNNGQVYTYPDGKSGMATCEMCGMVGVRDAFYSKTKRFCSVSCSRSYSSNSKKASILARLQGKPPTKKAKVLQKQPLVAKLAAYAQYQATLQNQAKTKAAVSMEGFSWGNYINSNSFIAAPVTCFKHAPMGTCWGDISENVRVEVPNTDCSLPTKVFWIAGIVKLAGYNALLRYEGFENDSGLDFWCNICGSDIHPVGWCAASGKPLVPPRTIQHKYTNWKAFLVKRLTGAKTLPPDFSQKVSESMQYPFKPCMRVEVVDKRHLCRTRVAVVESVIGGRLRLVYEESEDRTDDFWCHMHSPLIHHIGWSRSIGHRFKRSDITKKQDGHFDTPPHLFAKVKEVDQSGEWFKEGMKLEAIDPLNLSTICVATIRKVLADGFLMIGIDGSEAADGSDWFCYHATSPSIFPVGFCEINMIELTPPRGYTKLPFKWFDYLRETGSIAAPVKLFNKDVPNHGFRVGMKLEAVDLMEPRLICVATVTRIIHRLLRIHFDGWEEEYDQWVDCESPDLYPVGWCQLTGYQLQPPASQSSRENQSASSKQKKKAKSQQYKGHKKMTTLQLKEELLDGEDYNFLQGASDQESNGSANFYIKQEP
UniProt P52699, sequence (whole entry, looked up): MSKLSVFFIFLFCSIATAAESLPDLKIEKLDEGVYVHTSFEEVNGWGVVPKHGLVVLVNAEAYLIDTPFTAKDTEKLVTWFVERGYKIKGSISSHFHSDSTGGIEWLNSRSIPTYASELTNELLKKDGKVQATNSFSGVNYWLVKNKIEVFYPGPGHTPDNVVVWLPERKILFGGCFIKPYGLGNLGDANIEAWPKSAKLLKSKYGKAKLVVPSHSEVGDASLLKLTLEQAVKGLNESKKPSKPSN

SMILES | target | test | test system | setting | IC50
NCCCCCO[C@H]1O[C@H](COS(=O)(=O)O)[C@@H](O[C@@H]2O[C@@H](C(=O)O)[C@@H](O[C@H]3O[C@H](COS(=O)(=O)O)[C@@H](O[C@@H]4O[C@@H](C(=O)O)[C@@H](O[C@H]5O[C@H](COS(=O)(=O)O)[C@@H](O[C@@H]6O[C@@H](C(=O)O)[C@@H](O[C@H]7O[C@H](COS(=O)(=O)O)[C@@H](O[C@@H]8O[C@@H](C(=O)O)[C@@H](O)[C@H](O)[C@H]8OS(=O)(=O)O)[C@H](O)[C@H]7NS(=O)(=O)O)[C@H](O)[C@H]6OS(=O)(=O)O)[C@H](O)[C@H]5NS(=O)(=O)O)[C@H](O)[C@H]4OS(=O)(=O)O)[C@H](O)[C@H]3NS(=O)(=O)O)[C@H](O)[C@H]2OS(=O)(=O)O)[C@H](O)[C@H]1NS(=O)(=O)O | F10 (Bos taurus, UniProt P00743) | enzyme activity, inhibitor, absorbance | – | – | 52 µg/mL
CC(C)(C)NCCCNC(=O)c1ccnc(Br)c1 | MBT domain-containing protein 1 (Homo sapiens, UniProt Q05BQ5) | methyl-lysine reader binding, inhibitor, AlphaScreen | – | – | > 100 µM
O=c1nc2[nH]nc(-c3cc(Br)ccc3F)nc-2c(=O)[nH]1 | TPR | inhibitor, DTNB-coupled colourimetric | – | with: substrate at Km | 92 µM
CCOC(=O)N1CCC(Oc2nc3c(c(=O)n(C)c(=O)n3C)n2Cc2cccc(C)c2)CC1 | ALDH2 (Homo sapiens, UniProt P05091) | enzyme activity, inhibitor | – | – | 3.9 µM
Cn1cc(C(=O)c2ccccc2F)cc1/C=C(\C#N)C(N)=O | Ribosomal protein S6 kinase alpha-3, C-terminal kinase domain (RPS6KA3, Homo sapiens, UniProt P51812, T493M) | kinase activity, inhibitor | – | with: 0.1 mM ATP | > 100 µM
C[C@@H](c1ccn(Cc2ccc(OC(F)(F)F)cc2)n1)[C@](O)(Cn1cnnn1)c1ccc(F)cc1F | Cytochrome P450 2C9 (CYP2C9, Homo sapiens, UniProt P11712) | enzyme activity, inhibitor | human, liver microsomes | – | 4.08 µM
NS(=O)(=O)c1ccc(-n2cc(CNc3ccc(F)cc3)c(-c3ccc(OCc4ccccc4)cc3)n2)cc1 | PTGS1 (Homo sapiens, UniProt P23219) | enzyme activity, inhibitor, absorbance | – | – | 63.8 µM
N=C(CCl)NCCC[C@H](NC(=O)c1ccc(/N=N\c2ccccc2)cc1)c1nc2ccccc2[nH]1 | PADI2 (Homo sapiens, UniProt Q9Y2J8) | inhibitor, competitive ABPP | – | 2 h, 37 °C, 30 min preincubation, with: RFA probe 2 µM | 9.1 µM
COc1ccc(C(=O)/C=C(\O)C(F)(F)C(F)(F)F)c(O)c1 | formate-nitrite transporter (Plasmodium berghei, UniProt A0A509AFP9) | L-lactate transport, inhibitor | yeast | pH 6.8, with: 14C-L-lactate 1 mM | 0.32 ± 0.03 µM
COc1cc(OC)cc(-c2nc3ccc(C(=O)NCCCN4CCN(c5cccc(C)c5C)CC4)cc3n2C2CCC2)c1 | ACVR1 R206H | binding, NanoBRET | HEK293 | – | 4.45 µM
Nc1ncnc2c1ncn2C1OC(COP(=O)(O)O)C(O)C1O (centres unmarked) | Fructose-1,6-bisphosphatase 1 (Mus musculus, UniProt Q9QXD6, G27P) | enzyme activity, inhibitor | – | His-tagged mouse G27P mutant | 4420 µM
CCc1ccc(NC(=O)C(C)Sc2nnc(C3CCN(C(=O)Nc4ccccc4)CC3)n2CC)cc1 (centres unmarked) | Seed linoleate 13S-lipoxygenase-1 (Glycine max, UniProt P08170) | enzyme activity, inhibitor | – | – | < 7 µM and 3.83 µM
CCn1cc(-c2ccnc(Nc3ccc(OC)cc3)n2)c(-c2cccnc2)n1 | ACVR1 R206H | enzyme activity, inhibitor, radiometric | – | – | 0.0943 µM
Cc1cnc(C(=O)N[C@@H](Cc2cn(C)cn2)C(=O)N2CCC[C@H]2C(N)=O)cn1 | Thyrotropin-releasing hormone receptor (Mus musculus, UniProt P21761) | ligand displacement, radioligand | – | – | > 50 µM
CNC(=O)C1CCN(c2cc(C)c(F)cc2NC(=O)c2ccc(-c3c(C)ccc4[nH]ncc34)c(C)c2)CC1 | EPHA4 (Homo sapiens, UniProt P54764) | target engagement in cells, BRET | – | – | 0.04 µM
Cc1ccc(-c2nc3ccc(Cl)cc3c(C(=O)NCCN(C)C)c2C)cc1 | TPR | inhibitor, DTNB-coupled colourimetric | – | with: substrate at Km | 26.5 µM
Nc1ncc(-c2cnn(C3CCNCC3)c2)cc1-c1nc2ccc(Cl)c(F)c2o1 | JAK2 (Homo sapiens, UniProt O60674) | enzyme activity, inhibitor, TR-FRET | – | – | 4.2 µM
CC(=O)NCCN(CC(=O)NCCN(CC(=O)NCCN(CC(=O)NCCC(N)=O)C(=O)C[C@@H](N)Cc1ccccc1)C(=O)C[C@@H](N)CCCNC(=N)N)C(=O)C[C@@H](N)Cc1ccccc1 | HIV-1 TAR RNA | Tat/TAR complex displacement, FRET | – | room temperature, with: 10 nM Tat/TAR complex | 8.7 ± 0.4 µM

SMILES | target | test | test system | setting | IC50
CCN(c1nc(NCC(=O)O)nc(N2CCN(c3ccccc3OC)CC2)n1)C1CCCCC1 | Slit homolog 2 protein, with SLIT2 (SLIT2, Homo sapiens, UniProt O94813) | inhibitor, TR-FRET | – | – | 239 µM
COCCO[C@H]1CC[C@H](Nc2cc(=O)n(C)c3ccc(-c4cncs4)cc23)CC1 | CD38 | enzyme activity, inhibitor, fluorescence | – | – | > 1 µM
CC1(C)C2CCC3(CC(c4ccccc4)c4c(O)c(C=O)c(O)c(C=O)c4O3)C1C2 (single isomer, unassigned; (+)) | PFKM (Homo sapiens, UniProt P08237, K678R) | enzyme activity, inhibitor | HEK293T cell lysate | mutant | > 100 µM
COc1nn(-c2ccc(NC(=O)CON)cc2)c(=O)o1 | Uncharacterized hydrolase SAUSA300_2518 (Staphylococcus aureus, UniProt Q2FDS6) | enzyme activity, inhibitor | – | with: 4-methylumbelliferyl substrate | 0.3 µM
CC(=O)N[C@@H]1[C@@H](OC(C)=O)[C@@H](O)[C@H](Oc2c(-c3ccc(O)cc3)oc3cc(O)cc(O)c3c2=O)O[C@H]1CC(C)C | RPS6KA3 (Homo sapiens, UniProt P51812) | enzyme activity, inhibitor | – | – | 0.32 µM
CN(C(=O)c1ccn2ncc(-c3ccc(C(N)=O)cc3)c2c1)c1ccc(C#N)cn1 | MAP3K8 (Homo sapiens, UniProt P41279) | enzyme activity, inhibitor | – | – | > 10 µM
N#C/C(=C\c1ccc2ccncc2c1)C(N)=O | Ribosomal protein S6 kinase alpha-3, C-terminal kinase domain (RPS6KA3, Homo sapiens, UniProt P51812) | enzyme activity, inhibitor | – | 10 mM reduced glutathione, with: 0.1 mM ATP, peptide substrate | 12.7 µM
Cc1ccc(CC(=O)N(CCCn2ccnc2)c2nc3ccccc3s2)c(C)c1 | CHD1L (Homo sapiens, UniProt Q86WJ1) | ATPase activity, inhibitor | – | 1 h, 37 °C, with: ATP 10 µM | 4.61 µM
Cc1cc(O)c2c(c1)C(=O)c1cc3oc(=O)cc(-c4ccccc4)c3c(O)c1C2=O | mushroom tyrosinase | enzyme activity | – | with: L-DOPA | > 100 µg/mL
CC(C)NCc1ccc(C[C@@H]2NC(=O)[C@@H](Cc3c[nH]c4ccccc34)NC(=O)[C@@H]3CCC(=O)NCCCCCC[C@H](NC(=O)[C@H](Cc4ccc(O)c(I)c4)NC(=O)[C@H]([C@@H](C)O)NC2=O)C(=O)N[C@@H](CO)C(=O)N[C@H](C(=O)O)CSSC[C@H](N)C(=O)N[C@@H](CCCCN)C(=O)N[C@@H](Cc2ccccc2)C(=O)N3)cc1 | SSTR3 (Homo sapiens, UniProt P32745) | ligand displacement, radioligand | – | cell membranes | > 1 µM
O=c1c(-c2cccnc2)c[nH]n1-c1ccc(CO)cn1 | EGLN2 (Homo sapiens, UniProt Q96KS0) | enzyme activity, inhibitor, europium VBC binding | – | 10 µM FeSO4, 2 mM ascorbate, with: 20 µM 2-oxoglutarate | 0.86 µM
COC(=O)C(CS)N1C(=O)c2cccc3c(N(C)C)ccc(c23)C1=O (centres unmarked) | Metallo-beta-lactamase type 2 (Serratia marcescens, UniProt P52699) | enzyme activity, inhibitor | – | pH 7.0, with: chromacef 25 µM | 0.09 ± 0.01 µM
Cc1cn([C@@H]2C[C@@H](O)[C@H](COP(=O)(O)O)O2)c(=O)[nH]c1=O | Thymidylate kinase (DTYMK, Homo sapiens, UniProt P23919) | ligand displacement | – | – | 82 µM
CC1=CC(C)(C)NC(Nc2nc(-c3ccccc3)c3ccccc3n2)=N1 | CD38 | enzyme activity, inhibitor, fluorescence | – | – | 23 µM
COc1cc(-c2nc3ccc(C(=O)NCCCN4CCN(c5cccc(C)c5C)CC4)cc3n2C2CCC2)cc(OC)c1OC | ACVR1 R206H | binding, NanoBRET | HEK293 | – | 1.53 µM
CC(=O)N[C@H]1[C@@H](OC(=O)NCCCOCCOCCOCCCNC(=O)O[C@H]2O[C@H](CNC(=O)OCCOCCOCCOCCOCCOCCOCCOCCOCCOCCOCCOC(=O)NC[C@H]3O[C@H](OC(=O)NCCCOCCOCCOCCCNC(=O)O[C@H]4O[C@H](CO)[C@@H](O)[C@H](O)[C@H]4NC(C)=O)[C@H](NC(C)=O)[C@@H](O)[C@@H]3O)[C@@H](O)[C@H](O)[C@H]2NC(C)=O)O[C@H](CO)[C@@H](O)[C@@H]1O | wheat germ agglutinin (Triticum vulgaris) | binding to immobilised GlcNAc, inhibitor, enzyme-linked lectin | – | with: HRP-labelled WGA | 0.0066 µM
CC(=O)NCCN(CC(=O)NCCN(CC(=O)NCCN(CC(=O)NCCC(N)=O)C(=O)[C@@H](N)CCCNC(=N)N)C(=O)[C@@H](N)Cc1ccccc1)C(=O)[C@@H](N)Cc1ccccc1 | HIV-1 TAR RNA | Tat/TAR complex displacement, FRET | – | room temperature, with: 10 nM Tat/TAR complex | 103.8 ± 0.4 µM

For quick reference, copied from above:
SMILES | target | test | test system | setting | IC50
CC(=O)N[C@@H]1[C@@H](OC(C)=O)[C@@H](O)[C@H](Oc2c(-c3ccc(O)cc3)oc3cc(O)cc(O)c3c2=O)O[C@H]1CC(C)C | RPS6KA3 (Homo sapiens, UniProt P51812) | enzyme activity, inhibitor | – | – | 0.32 µM
Cc1ccc(CC(=O)N(CCCn2ccnc2)c2nc3ccccc3s2)c(C)c1 | CHD1L (Homo sapiens, UniProt Q86WJ1) | ATPase activity, inhibitor | – | 1 h, 37 °C, with: ATP 10 µM | 4.61 µM
Cc1cn([C@@H]2C[C@@H](O)[C@H](COP(=O)(O)O)O2)c(=O)[nH]c1=O | Thymidylate kinase (DTYMK, Homo sapiens, UniProt P23919) | ligand displacement | – | – | 82 µM
